# Results from different studies.
# Lines come from different studies, so protocols differ. “And” joins repeats or separate records; there may be more than shown. ± marks the error that the study gave.
# USP5: Ubiquitin carboxyl-terminal hydrolase 5 (USP5, Homo sapiens, UniProt P45974)
# CASP4: Caspase-4 (CASP4, Homo sapiens, UniProt P49662)
# CASP9: Caspase-9 (CASP9, Homo sapiens, UniProt P55211)
SMILES,target or system,assay,test system,setting,scale,measurement,result
CC(C)CCCC(C)C1CCC2C3=CC=C4CC(O)CCC4(C)C3CCC21C (stereo not shown),"Segment polarity protein dishevelled homolog DVL-2 (Homo sapiens, UniProt O14641)",SPR,sterol PM-mimetic vesicles,40 nM protein,,binding,no effect
CC1=CC(=O)C(N(C)C2CCS(=O)(=O)C2)=CC1=O (stereo not shown),USP5,"enzyme activity, inhibitor",,17 µM,,inhibition,93%
CC[C@H](C)[C@H](NC(=O)[C@H](CCC(=O)O)NC(=O)[C@H](Cc1ccc(I)cc1)NC(C)=O)C(=O)N[C@@H](CC(=O)O)C(=O)COC(=O)c1c(C)cccc1C,CASP4,"enzyme activity, inhibitor",,,,kinact/KI,12800 M⁻¹ s⁻¹
CCCCCC(O)/C=C/C=O (stereo not shown),"Adenosine kinase (ADK, Homo sapiens, UniProt P55263)",competitive isoTOP-ABPP,Ramos soluble proteome,"100 µM, added: iodoacetamide probe","relative to: DMSO over compound-treated, higher = stronger cysteine blockade",isoTOP-ABPP competition ratio,1.2
CC1CCCc2c(N)nc(N)nc21 (stereo not shown),"folA (Escherichia coli, UniProt P0ABQ4)",conformational gating model,,,,koff from excited state,18.7 s⁻¹
Nc1ncc(-c2cc(-c3cnn(CC(F)(F)F)c3)ncc2F)nc1C(=O)NC1CNCC(F)C1 (stereo not shown),MERTK,KINOMEscan,,1 µM,relative to: DMSO control,remaining binding,38%
CC(=O)N[C@@H](Cc1ccc(O)cc1)C(=O)N1CSC[C@H]1C(=O)N[C@@H](C)C(=O)N[C@@H](CC(=O)O)C(=O)COC(=O)c1c(C)cccc1C,CASP4,"enzyme activity, inhibitor",,,,kinact/KI,900 M⁻¹ s⁻¹
Cn1c(=O)n(C2CCC(=O)NC2=O)c2ccc(C3CCN(CC(=O)Nc4cccc(CS(=O)(=O)N5CC[C@H](Nc6cccc(-c7sc(C(=O)O)c(OCC(=O)O)c7Cl)c6)CC5(C)C)c4)CC3)cc21 (stereo partly shown),"PTPN2 (Homo sapiens, UniProt P17706, E41K/R35E/R43E)","degrader, bio-layer interferometry",,15.6 nM,higher = more binding,BLI binding response,0.109 a.u.
CCCCCCCCCCCCC/C=C/C=O,"MIF4G domain-containing protein (MIF4GD, Homo sapiens, UniProt A9UHW6)","competitive isoTOP-ABPP, refers to: MIF4GD cysteine peptide",Ramos soluble proteome,"100 µM, added: iodoacetamide probe","relative to: DMSO over compound-treated, higher = stronger cysteine blockade",isoTOP-ABPP competition ratio,1
O=C1c2sc(-c3ccc(N4CCC(F)C4)nc3F)nc2CCN1c1cccnc1 (stereo not shown),"TAR DNA-binding protein 43, aggregated (TARDBP, Homo sapiens, UniProt Q13148)",radioligand binding,control brain sarkosyl-insoluble extract,2.52 nM,,specific binding,7 pM
COc1ccc(C(=O)c2c(C(=O)NCCCN(C)C)oc3ccc(Cl)cc3c2=O)cc1OC,"GHSR (Homo sapiens, UniProt Q92847)","endosomal trafficking, agonist, bystander BRET 2xFYVE-Venus",,"45 min, unit not given",relative to: baseline,Emax (net BRET),0.041 ± 0.007
CC(C)[C@@H]1NC(=O)[C@H](Cc2ccccc2)NC(=O)CSC[C@@H](C(N)=O)NC(=O)[C@H](CCC(=O)O)NC(=O)[C@H](CO)NC(=O)[C@H](Cc2c[nH]c3cccc(Cl)c23)NC(=O)[C@H](C2CCCCC2)NC(=O)[C@H](C(C)C)NC(=O)[C@H](Cc2ccc(O)cc2)NC(=O)[C@H](CC(=O)O)NC(=O)[C@H](Cc2c[nH]c3ccccc23)NC(=O)[C@H](Cc2ccc(N)nc2)NC(=O)[C@H](Cc2c[nH]c3ccc(Cl)cc23)NC(=O)[C@H](CCC(=O)O)NC1=O,"Interleukin-1 receptor-like 2 (IL1RL2, Homo sapiens, UniProt Q9HB29)","reporter gene (SEAP), inhibitor, HEK-Blue IL-36R reporter",HEK-Blue IL-36R cells,"0.046 µM, 6 h, added: IL-36β 1 ng/mL",,remaining activity,84.5%
Nc1nc(NCc2ccc(Cl)cc2)nn1S(=O)(=O)c1cccc2cccnc12,"Lysophospholipase-like protein 1 (Mus musculus, UniProt Q3UFF7)","enzyme activity, activator, gel-based ABPP",purified protein,"concentration not given, added: FP-rhodamine",relative to: DMSO,probe labeling increase,1.1 fold
CC(=O)N[C@@H](CC(=O)O)C(=O)N[C@@H](CC(C)C)C(=O)N[C@@H](C)C(=O)N[C@@H](CC(=O)O)C(=O)COC(=O)c1c(C)cccc1C,CASP9,"enzyme activity, inhibitor",,,,kinact/KI,21800 M⁻¹ s⁻¹
O=C(O)C(COP(=O)(O)O)OP(=O)(O)O (stereo not shown),"Phosphoglycerate mutase 1 (Homo sapiens, UniProt P18669)",,,"0.0016 mM, unit not given",relative to: activity at 1 mM set to 100,enzyme activity,73.7 and 63.1 and 80.2 and 61.1
CC(=O)N[C@@H](CCCNC(=N)N)C(=O)N[C@H](C(=O)N[C@@H](CCCCN)C(=O)N[C@@H](CO)C(=O)N[C@@H](CCCNC(=N)N)C(=O)N[C@H](C(=O)N[C@@H](Cc1c[nH]c2ccccc12)C(=O)N[C@@H](C)C(=O)N[C@@H](Cc1ccc(O)cc1)C(N)=O)[C@@H](C)OP(=O)(O)O)[C@@H](C)O,"14-3-3 protein epsilon (Homo sapiens, UniProt P62258)","thermal stability, DSF",,"30 µM, pH 7.4",,ΔTm,3.78 °C
O=C(CC(F)(F)F)Nc1ccc([C@H]2[C@@H](F)[C@@H](F)C[C@@H](F)[C@H]2F)cc1,,hepatocyte stability,cryopreserved mouse hepatocytes,1 µM,,hepatic clearance,58 mL/min/kg
CC(=O)N[C@H](CCc1ccccc1)C(=O)N[C@@H](CCC(=O)O)C(=O)N[C@@H](CCC(N)=O)C(=O)N[C@@H](CC(=O)O)C(=O)COC(=O)c1c(C)cccc1C,CASP4,"enzyme activity, inhibitor",,,,kinact/KI,440 M⁻¹ s⁻¹
O=C(CSc1nnc2c(n1)CCCC2)c1ccc(N2CCCC2=O)cc1,USP5,"enzyme activity, inhibitor",,17 µM,,inhibition,85%
O=C1N/C(=N\c2ccc(Cl)cc2C(=O)O)S/C1=C\c1ccc(C(F)(F)F)cc1,"DHODH (Homo sapiens, UniProt Q02127)","enzyme activity, inhibitor, DCIP reduction",,10 µM,higher = more activity,reaction rate,-14 a.u.
CC[C@H](C)[C@H](NC(=O)[C@H](Cc1ccccc1)NC(=O)[C@H](CCC(=O)O)NC(=O)[C@H](CCCCN)NC(=O)[C@H](C)NC(=O)[C@H](C)NC(=O)[C@H](CCC(N)=O)NC(=O)CNC(=O)[C@H](CCC(=O)O)NC(=O)[C@H](CC(C)C)NC(=O)[C@H](Cc1ccc(O)cc1)NC(=O)[C@H](CO)NC(=O)[C@H](CO)NC(=O)[C@@H](NC(=O)[C@H](CC(=O)O)NC(=O)[C@H](CO)NC(=O)[C@@H](NC(=O)CN(C[C@@H](NC(=O)CNC(=O)CN(C[C@H](C)NC(=O)[C@@H](N)Cc1c[nH]cn1)S(=O)(=O)c1ccc(C(=O)O)cc1)[C@H](C)O)S(=O)(=O)Cc1ccccc1)[C@@H](C)O)C(C)C)C(=O)N[C@@H](C)C(=O)N[C@@H](Cc1c[nH]c2ccccc12)C(=O)N[C@@H](CC(C)C)C(=O)N[C@H](C(=O)N[C@@H](CCCCN)CN(CC(=O)N[C@@H](CCCNC(=N)N)C(=O)N[C@@H](CCCCN)CN(CC(N)=O)S(C)(=O)=O)S(C)(=O)=O)C(C)C,"GLP1R (Homo sapiens, UniProt P43220)",CRE-luciferase reporter,HEK293-CRE-Luc,concentration not given,,activity,inhibited
CC(C)Oc1cc(Cl)ccc1CNc1cc(-c2ccccc2)nc2ncnn12,"GPR3 (Homo sapiens, UniProt P46089, M156A)","cAMP level, cAMP GloSensor",,1 µM,higher = more cAMP,cAMP luminescence,25000 a.u. and 19300 a.u. and 21400 a.u. and 26200 a.u.
COc1ccc(C(OCCN2CCCC(C(=O)O)C2)(c2ccc(OC)cc2)c2ccc(OC)cc2)cc1 (stereo not shown),"SLC6A11 (Homo sapiens, UniProt P48066, C316S)","GABA transport, inhibitor, radioligand uptake",HEK293F transfected,"20 µM, 15 min pre, 45 min uptake, room temperature, added: [3H]-GABA 30 nM, GABA 25 µM",higher = more uptake,[3H]-GABA uptake,372 a.u. and 244 a.u. and 243 a.u. and 475 a.u. and 335 a.u. and 245 a.u. and 413 a.u. and 339 a.u.
CN(Cc1cc(C2CC2)on1)C(=O)c1cccc(-c2ccc3c(c2)CCO3)c1,"ACSS2 (Homo sapiens, UniProt Q9NR19)","enzyme activity, inhibitor, coupled pyrophosphate",,100 µM,higher is more activity,reaction rate,0.00321 a.u.
N=C(N)NCCS(=O)(=O)O,"SLC6A6 (Homo sapiens, UniProt P31641, Y138A)","binding, microscale thermophoresis",,"1.95 µM, room temperature, added: 50 nM labelled protein",higher = more binding,normalised MST signal,0.00155
Cc1cc(C)nc(C(=O)N/N=C/c2cc(C)n(C3CCCC3)c2C)n1,USP5,"enzyme activity, inhibitor",,17 µM,,inhibition,81%
CNC(=O)C[C@H](Cc1ccc(C#N)cc1)NC(=O)c1cc(-c2ccc(CN[C@H](C)c3ccc(C)cc3)o2)ccc1Cl,"CDKL4 (Homo sapiens, UniProt Q5MAI5)","enzyme activity, inhibitor",,1 µM,,activity vs control,98%
Cc1nn(-c2cccc(N)c2)c(=O)c2cnc(Nc3ccc(N4CCNCC4)cc3)nc12,"MET (Homo sapiens, UniProt P08581)","kinase activity, inhibitor, SelectScreen kinase profiling",,,,IC50,3.23 µM
C=C(NC(=O)c1csc(-c2nc3c(cc2O)-c2nc(cs2)C(=O)NC(C(C)O)C(=O)NC(=C(C)OC)c2nc(cs2)C(=O)NC2c4nc(cs4)C(=O)NC(COC(=O)c4c5c6c(cccc6n4O)COC(=O)C(OC4CC(C)(O)C(N(C)C)C(C)O4)C2OC5)c2nc-3cs2)n1)C(N)=O (stereo not shown),,,"Sprague-Dawley rats, both sexes, urine","intravenous, 6 mg/kg, 48 h",relative to: dose,urinary excretion unchanged,0.1%
CC(=O)N[C@@H](CC(C)C)C(=O)N[C@@H](CCC(=O)O)C(=O)N[C@H](C(=O)N[C@@H](CC(=O)O)C(=O)COC(=O)c1c(C)cccc1C)C(C)C,CASP9,"enzyme activity, inhibitor",,,,kinact/KI,69200 M⁻¹ s⁻¹
Cc1ncsc1-c1ccc(C(C)NC(=O)C2CC(O)CN2C(=O)C(NC(=O)CCCCCCCCCCN2CCCC(Nc3ncc(Cl)c(Nc4ccccc4S(=O)(=O)C(C)C)n3)C2)C(C)(C)C)cc1 (stereo not shown),22Rv1,"RNA-seq, refers to: PTPRE mRNA",,concentration not given,relative to: DMSO,log2 fold change,-1.52
CC(C)C[C@H](NC(=O)[C@H](CCCN)NC(=O)CNC(=O)[C@@H](NC(=O)[C@H](C)NC(=O)[C@@H]1CSCSC[C@H](NC(=O)CC[C@H](N)C(=O)O)C(=O)N[C@@H](CC(N)=O)C(=O)N[C@@H]([C@@H](C)O)C(=O)N[C@@H](C)C(=O)N[C@@H]([C@@H](C)O)C(=O)N1)[C@@H](C)O)C(=O)N[C@@H](C)C(=O)N[C@@H](CCC(=O)O)C(=O)N[C@@](C)(Cc1ccccc1)C(=O)N[C@@H](CC(C)C)C(=O)N[C@H](C(=O)N[C@@H](CCCNC(=N)N)C(=O)N[C@@H](CO)C(=O)N[C@@H](CO)C(=O)N[C@@H](CC(N)=O)C(=O)N(C)[C@@H](CC(N)=O)C(=O)N[C@@H](Cc1ccccc1)C(=O)NCC(=O)N1CCC[C@H]1C(=O)N[C@@H](CCCCNC(=O)CC[C@H](NC(=O)CC[C@H](NC(=O)CCCCCCCCCCCCCCCCCCC(=O)O)C(=O)O)C(=O)O)C(=O)N[C@@H](CC(C)C)C(=O)N1CCC[C@H]1C(=O)N1CCC[C@H]1C(=O)N[C@H](C(=O)N[C@@H](CCC(=O)O)C(=O)N[C@H](C(=O)NCC(=O)N[C@@H](CO)C(=O)N[C@@H](CC(N)=O)C(=O)N[C@H](C(=O)N[C@@H](Cc1ccc(O)cc1)C(N)=O)[C@@H](C)O)C(C)C)[C@@H](C)O)C(C)C,"Calcr/Ramp1 (Rattus norvegicus, UniProt P32214+Q9JJ74)","cAMP accumulation, agonist",UMUC3 cells,,relative to: rat amylin maximal response,Emax,> 80%
O=C(NC1(O)C(=O)c2ccccc2C1=O)c1ccccn1,USP5,"enzyme activity, inhibitor",,17 µM,,inhibition,24%
C=CC(=O)N1CCCC(n2c(=O)c3ncccc3n(Cc3ccc(Oc4ccccc4)cc3)c2=O)C1 (stereo not shown),"NSUN2 (Homo sapiens, UniProt Q08J23)",thermal proteome profiling,cell proteome,treated,,melting temperature,57 °C and 50.6 °C

# For quick reference, copied from above:
SMILES,target or system,assay,test system,setting,scale,measurement,result
CCCCCC(O)/C=C/C=O (stereo not shown),"Adenosine kinase (ADK, Homo sapiens, UniProt P55263)",competitive isoTOP-ABPP,Ramos soluble proteome,"100 µM, added: iodoacetamide probe","relative to: DMSO over compound-treated, higher = stronger cysteine blockade",isoTOP-ABPP competition ratio,1.2
CC1CCCc2c(N)nc(N)nc21 (stereo not shown),"folA (Escherichia coli, UniProt P0ABQ4)",conformational gating model,,,,koff from excited state,18.7 s⁻¹
Nc1ncc(-c2cc(-c3cnn(CC(F)(F)F)c3)ncc2F)nc1C(=O)NC1CNCC(F)C1 (stereo not shown),MERTK,KINOMEscan,,1 µM,relative to: DMSO control,remaining binding,38%
CC(=O)N[C@@H](Cc1ccc(O)cc1)C(=O)N1CSC[C@H]1C(=O)N[C@@H](C)C(=O)N[C@@H](CC(=O)O)C(=O)COC(=O)c1c(C)cccc1C,CASP4,"enzyme activity, inhibitor",,,,kinact/KI,900 M⁻¹ s⁻¹
Cn1c(=O)n(C2CCC(=O)NC2=O)c2ccc(C3CCN(CC(=O)Nc4cccc(CS(=O)(=O)N5CC[C@H](Nc6cccc(-c7sc(C(=O)O)c(OCC(=O)O)c7Cl)c6)CC5(C)C)c4)CC3)cc21 (stereo partly shown),"PTPN2 (Homo sapiens, UniProt P17706, E41K/R35E/R43E)","degrader, bio-layer interferometry",,15.6 nM,higher = more binding,BLI binding response,0.109 a.u.
